Published values pooled from the literature.
Lines come from different studies, so protocols differ. Numbers after ± are the reported error.

SMILES | test | test system | conditions | quantity | value
O=C(NC[C@H](O)CO)c1ccncc1Nc1ccc(I)cc1F |  | human | oral, 60 mg, single dose alone | apparent volume of distribution | 395 L
NC1(c2ccc(-c3nc4ccn5c(=O)[nH]nc5c4cc3-c3ccccc3)cc2)CCC1 |  | human, expansion, reduced dose | oral, 90 mg, together with: dinaciclib 9 mg/m2 | apparent volume of distribution | 3350 L
C[C@@H](Oc1cc(-c2cnn(C3CCNCC3)c2)cnc1N)c1c(Cl)ccc(F)c1Cl |  | healthy human | oral, 250 mg single, day 5, geometric mean, together with: esomeprazole 40 mg/day | apparent oral clearance | 118 L/h
Cn1cnc2c(F)c(Nc3ccc(Br)cc3Cl)c(C(=O)NOCCO)cc21 |  | human cancer patients, plasma | oral, 75 mg, cycle 1 day 1 | apparent clearance CL/F | 16.4 ± 7.08 L/h
CC(C)NCC1CCc2cc(CO)c([N+](=O)[O-])cc2N1 (stereo not drawn) |  | healthy human, plasma | oral, 1000 mg | apparent oral clearance | 43 mL/min/kg
CNC(=O)c1cc(Oc2ccc(NC(=O)Nc3ccc(Cl)c(C(F)(F)F)c3)cc2)ccn1 | population PK model, bootstrap median | human, AML patients | oral, dose not given | apparent volume of distribution | 167 L
C=CC[C@@H]1/C=C(\C)C[C@H](C)C[C@H](OC)[C@H]2O[C@@](O)(C(=O)C(=O)N3CCCC[C@H]3C(=O)O[C@H](/C(C)=C/[C@@H]3CC[C@@H](O)[C@H](OC)C3)[C@H](C)[C@@H](O)CC1=O)[C@H](C)C[C@@H]2OC |  | healthy humans, whole blood | oral, 5 mg single dose, together with: isavuconazole 200 mg once daily after loading | apparent oral clearance (CL/F) | 8 L/h
CO[C@H]1C[C@@H]2CC[C@@H](C)[C@@](O)(O2)C(=O)C(=O)N2CCCC[C@H]2C(=O)O[C@H]([C@H](C)C[C@@H]2CC[C@@H](O)[C@H](OC)C2)CC(=O)[C@H](C)/C=C(\C)[C@@H](O)[C@@H](OC)C(=O)[C@H](C)C[C@H](C)/C=C/C=C/C=C/1C |  | human | oral, dose not given | apparent oral clearance | 18.7 L/h
O=C(c1nc2n(n1)[C@H](c1ccccc1)C[C@@H]2F)C1CC1 |  | human, plasma | oral, 75 mg, single dose, high-fat meal, geometric mean | apparent volume of distribution (Vz/F) | 111 L
CCCOc1ccc([C@H]2CNC(=O)N2c2ccc3[nH]cnc3c2)cc1 |  | human volunteers fasted, plasma | oral solution, 50 mg single dose, day 1, geometric mean | apparent terminal half-life | 157 min
CCN(CC)CCNC(=O)c1c(C)[nH]c(/C=C2\C(=O)Nc3ccc(F)cc32)c1C |  | human, hepatocellular carcinoma | oral, 37.5 mg once daily | apparent clearance (CL/F) | 30.3 L/h
CC(C)NC[C@@H](C(=O)N1CCN(c2ncnc3c2[C@H](C)C[C@H]3O)CC1)c1ccc(Cl)cc1 |  | human, Moderate hepatic function, plasma | oral, 100 mg single dose, NCI classification, geometric mean | apparent volume of distribution | 9270 L
